Measured values of several laboratories.
Protocols differ between the studies behind these lines. Several values in a cell are separate wells, animals, samples, runs or records. ± gives the spread as reported.
HDAC6 ZnF-UBD domain: Protein deacetylase HDAC6, ZnF-UBD domain (HDAC6, Homo sapiens, UniProt Q9UBN7)
Chain of UniProt Q9UBN7 (whole entry, looked up): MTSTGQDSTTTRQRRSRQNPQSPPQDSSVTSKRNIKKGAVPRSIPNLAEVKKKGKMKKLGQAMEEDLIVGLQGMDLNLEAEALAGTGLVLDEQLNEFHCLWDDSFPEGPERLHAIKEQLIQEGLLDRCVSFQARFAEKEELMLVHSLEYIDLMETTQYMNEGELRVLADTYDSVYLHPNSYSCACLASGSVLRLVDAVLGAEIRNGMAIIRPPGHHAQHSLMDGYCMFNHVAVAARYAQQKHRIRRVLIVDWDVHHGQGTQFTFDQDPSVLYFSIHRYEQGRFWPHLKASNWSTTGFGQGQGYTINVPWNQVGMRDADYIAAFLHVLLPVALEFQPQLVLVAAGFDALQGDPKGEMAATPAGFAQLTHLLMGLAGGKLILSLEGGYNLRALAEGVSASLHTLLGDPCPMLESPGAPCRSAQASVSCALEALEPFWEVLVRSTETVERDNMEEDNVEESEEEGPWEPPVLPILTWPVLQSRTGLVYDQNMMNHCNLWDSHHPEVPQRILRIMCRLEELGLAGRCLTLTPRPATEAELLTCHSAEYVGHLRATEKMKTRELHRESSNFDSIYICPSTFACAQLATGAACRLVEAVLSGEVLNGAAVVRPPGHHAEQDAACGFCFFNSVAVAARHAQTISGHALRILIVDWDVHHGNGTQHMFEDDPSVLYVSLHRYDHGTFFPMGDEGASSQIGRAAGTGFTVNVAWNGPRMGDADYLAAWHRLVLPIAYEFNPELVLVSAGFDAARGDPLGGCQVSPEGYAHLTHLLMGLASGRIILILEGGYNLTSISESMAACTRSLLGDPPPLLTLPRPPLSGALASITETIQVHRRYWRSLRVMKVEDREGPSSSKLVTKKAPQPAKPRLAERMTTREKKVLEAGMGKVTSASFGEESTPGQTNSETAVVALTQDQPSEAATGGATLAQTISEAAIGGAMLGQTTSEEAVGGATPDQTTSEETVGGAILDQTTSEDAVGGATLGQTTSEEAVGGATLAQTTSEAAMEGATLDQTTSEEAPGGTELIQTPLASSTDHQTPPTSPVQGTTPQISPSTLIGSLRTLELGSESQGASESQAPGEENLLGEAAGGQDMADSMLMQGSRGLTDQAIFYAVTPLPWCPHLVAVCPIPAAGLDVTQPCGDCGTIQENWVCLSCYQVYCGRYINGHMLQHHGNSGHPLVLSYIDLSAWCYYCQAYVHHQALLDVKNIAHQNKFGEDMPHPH
ADRA2B: Alpha-2B adrenergic receptor (ADRA2B, Homo sapiens, UniProt P18089)
Chain of UniProt P18089 (whole entry, looked up): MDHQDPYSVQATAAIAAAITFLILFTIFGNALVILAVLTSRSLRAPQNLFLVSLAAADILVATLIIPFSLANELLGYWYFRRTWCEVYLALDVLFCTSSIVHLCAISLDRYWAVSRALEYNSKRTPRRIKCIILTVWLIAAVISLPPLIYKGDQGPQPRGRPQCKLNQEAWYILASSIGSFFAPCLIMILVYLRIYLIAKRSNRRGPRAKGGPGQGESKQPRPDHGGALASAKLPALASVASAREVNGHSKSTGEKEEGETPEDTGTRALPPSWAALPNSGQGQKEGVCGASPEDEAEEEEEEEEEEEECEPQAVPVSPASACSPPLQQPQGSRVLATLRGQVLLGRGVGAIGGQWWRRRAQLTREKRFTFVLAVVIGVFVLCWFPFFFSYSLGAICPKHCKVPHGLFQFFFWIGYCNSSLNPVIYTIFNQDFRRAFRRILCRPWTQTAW
rep papain-like protease: Replicase polyprotein 1ab, papain-like protease (rep, Porcine epidemic diarrhea virus, UniProt P0C6Y4)
rep main protease: Replicase polyprotein 1ab, main protease (rep, Porcine epidemic diarrhea virus, UniProt P0C6Y4)
Chain of UniProt Q8IWT6 (whole entry, unmodified, looked up): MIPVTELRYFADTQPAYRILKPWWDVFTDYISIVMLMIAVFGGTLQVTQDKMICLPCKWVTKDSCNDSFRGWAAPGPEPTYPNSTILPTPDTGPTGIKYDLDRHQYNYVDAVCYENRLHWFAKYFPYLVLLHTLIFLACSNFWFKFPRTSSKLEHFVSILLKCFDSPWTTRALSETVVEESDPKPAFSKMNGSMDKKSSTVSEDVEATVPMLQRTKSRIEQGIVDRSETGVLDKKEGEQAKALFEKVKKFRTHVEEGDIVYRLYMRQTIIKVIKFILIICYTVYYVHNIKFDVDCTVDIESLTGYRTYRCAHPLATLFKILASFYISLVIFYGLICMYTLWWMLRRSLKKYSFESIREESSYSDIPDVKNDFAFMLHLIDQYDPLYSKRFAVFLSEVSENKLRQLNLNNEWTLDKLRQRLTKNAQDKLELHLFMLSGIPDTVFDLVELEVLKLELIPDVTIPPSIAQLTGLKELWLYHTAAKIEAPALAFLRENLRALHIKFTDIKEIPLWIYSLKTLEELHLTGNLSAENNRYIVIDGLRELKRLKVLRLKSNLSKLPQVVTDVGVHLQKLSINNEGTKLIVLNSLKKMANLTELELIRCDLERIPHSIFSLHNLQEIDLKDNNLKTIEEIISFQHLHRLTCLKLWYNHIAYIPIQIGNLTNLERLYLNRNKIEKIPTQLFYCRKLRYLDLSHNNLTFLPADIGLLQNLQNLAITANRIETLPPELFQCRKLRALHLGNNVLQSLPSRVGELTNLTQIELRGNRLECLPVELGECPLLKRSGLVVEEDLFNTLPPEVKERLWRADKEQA
Chain of UniProt Q09472 (whole entry, looked up): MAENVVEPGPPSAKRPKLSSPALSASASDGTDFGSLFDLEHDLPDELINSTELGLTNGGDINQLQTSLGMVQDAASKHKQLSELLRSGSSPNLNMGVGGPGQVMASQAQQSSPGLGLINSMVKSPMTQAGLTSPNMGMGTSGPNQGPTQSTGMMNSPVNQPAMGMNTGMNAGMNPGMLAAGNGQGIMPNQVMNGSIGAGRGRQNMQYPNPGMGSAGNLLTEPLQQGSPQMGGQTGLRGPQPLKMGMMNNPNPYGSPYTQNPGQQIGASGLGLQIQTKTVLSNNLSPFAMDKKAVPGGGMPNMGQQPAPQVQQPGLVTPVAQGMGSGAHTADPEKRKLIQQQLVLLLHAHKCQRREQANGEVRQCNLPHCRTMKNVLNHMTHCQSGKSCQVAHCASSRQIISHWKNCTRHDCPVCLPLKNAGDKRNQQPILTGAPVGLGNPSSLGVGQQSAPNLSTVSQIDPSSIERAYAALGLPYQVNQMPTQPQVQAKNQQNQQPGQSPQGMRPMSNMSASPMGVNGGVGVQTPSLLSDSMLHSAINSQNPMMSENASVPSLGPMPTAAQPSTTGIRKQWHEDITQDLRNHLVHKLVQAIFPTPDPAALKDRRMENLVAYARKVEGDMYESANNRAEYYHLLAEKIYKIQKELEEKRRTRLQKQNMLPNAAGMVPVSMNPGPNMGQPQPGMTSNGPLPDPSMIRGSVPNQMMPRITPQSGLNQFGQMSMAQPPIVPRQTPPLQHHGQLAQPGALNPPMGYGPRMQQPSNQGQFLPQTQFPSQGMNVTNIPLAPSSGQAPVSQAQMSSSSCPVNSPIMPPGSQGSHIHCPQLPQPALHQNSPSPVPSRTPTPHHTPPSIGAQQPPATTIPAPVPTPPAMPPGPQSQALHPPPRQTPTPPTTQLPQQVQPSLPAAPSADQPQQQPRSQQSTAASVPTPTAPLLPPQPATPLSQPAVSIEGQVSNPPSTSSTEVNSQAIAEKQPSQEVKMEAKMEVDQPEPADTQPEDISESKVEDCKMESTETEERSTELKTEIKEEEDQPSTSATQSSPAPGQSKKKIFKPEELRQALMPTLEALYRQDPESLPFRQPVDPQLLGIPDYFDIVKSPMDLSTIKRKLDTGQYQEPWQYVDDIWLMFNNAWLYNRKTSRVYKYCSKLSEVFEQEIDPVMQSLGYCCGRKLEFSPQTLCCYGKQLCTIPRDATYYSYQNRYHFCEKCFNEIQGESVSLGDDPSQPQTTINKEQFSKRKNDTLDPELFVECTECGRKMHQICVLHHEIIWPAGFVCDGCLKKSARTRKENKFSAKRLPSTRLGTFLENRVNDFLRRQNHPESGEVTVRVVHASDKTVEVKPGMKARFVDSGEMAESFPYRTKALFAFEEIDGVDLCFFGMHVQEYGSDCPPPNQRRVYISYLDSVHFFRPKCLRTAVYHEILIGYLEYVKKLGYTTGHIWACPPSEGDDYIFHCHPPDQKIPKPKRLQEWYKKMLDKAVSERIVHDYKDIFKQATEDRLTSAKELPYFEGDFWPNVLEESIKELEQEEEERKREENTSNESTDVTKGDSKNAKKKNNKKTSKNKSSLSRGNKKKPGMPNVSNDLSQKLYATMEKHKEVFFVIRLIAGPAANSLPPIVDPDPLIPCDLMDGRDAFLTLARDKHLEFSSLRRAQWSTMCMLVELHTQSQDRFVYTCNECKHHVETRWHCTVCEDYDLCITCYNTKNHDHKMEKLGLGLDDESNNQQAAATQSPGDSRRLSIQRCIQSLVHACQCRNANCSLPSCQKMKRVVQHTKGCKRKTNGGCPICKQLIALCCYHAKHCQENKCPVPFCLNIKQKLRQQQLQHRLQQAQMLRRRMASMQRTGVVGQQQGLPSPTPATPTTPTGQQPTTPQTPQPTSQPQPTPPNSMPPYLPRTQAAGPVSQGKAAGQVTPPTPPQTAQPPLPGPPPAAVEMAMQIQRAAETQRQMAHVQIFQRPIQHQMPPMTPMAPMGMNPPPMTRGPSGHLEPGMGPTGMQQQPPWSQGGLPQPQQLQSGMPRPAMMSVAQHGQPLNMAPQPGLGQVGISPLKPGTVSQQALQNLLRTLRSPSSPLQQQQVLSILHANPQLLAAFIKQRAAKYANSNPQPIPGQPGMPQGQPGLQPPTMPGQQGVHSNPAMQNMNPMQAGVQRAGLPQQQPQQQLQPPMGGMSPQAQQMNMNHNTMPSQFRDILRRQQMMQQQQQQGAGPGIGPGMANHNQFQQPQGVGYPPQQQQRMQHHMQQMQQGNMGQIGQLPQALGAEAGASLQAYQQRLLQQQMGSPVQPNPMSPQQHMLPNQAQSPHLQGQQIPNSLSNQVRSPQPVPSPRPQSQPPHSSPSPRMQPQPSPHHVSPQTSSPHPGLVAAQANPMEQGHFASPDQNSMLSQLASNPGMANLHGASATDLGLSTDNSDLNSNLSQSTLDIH

| SMILES | target or system | assay | system | conditions | how to read | measurement | result |
| --- | --- | --- | --- | --- | --- | --- | --- |
| O=C(O)CCc1ccccc1OCc1ccccn1 | HDAC6 ZnF-UBD domain | – | – | – | – | Kd | > 1000 µM |
| OO | Histone acetyltransferase p300, BHC core (EP300, Homo sapiens, UniProt Q09472) | enzyme activity, inhibitor | – | 62.5 µM, p300, no DTT, added: [3H]acetyl-CoA | – | inhibition | 13 ± 8% |
| OCCCN1CC[C@@H]2C[C@H]1c1cc(-c3ccc(C(F)(F)F)cc3)ccc12 | ADRA2B | radioligand binding, PDSP competition binding | – | 10 µM | – | inhibition | < 50% |
| COc1cc(CNC(=O)c2cccc(C#N)c2)cc(Br)c1OC | rep papain-like protease | enzyme activity, inhibitor, FRET | – | 10 µM | – | inhibition | < 0% |
| CC[C@@H]1[C@H](F)C(=O)N[C@@H]1COc1nccc2cc(C(N)=O)c(OC)cc12 | NEK9 (Homo sapiens, UniProt Q8TD19) | ATP-site probe binding, ActivX profiling | THP-1 cell lysate | 0.01 mM, Lys2 site | – | inhibition | 1.1% |
| COc1cc(-c2cc(C(C)=O)n3ccccc23)cc(OC)c1Cn1ccnc1 | EP300 (Homo sapiens, UniProt Q09472) | – | – | 1 µM | – | inhibition | 25.7% |
| CN1CCN(c2cc(-c3ccncc3)c(-c3ccc4ccccc4c3)nn2)CC1 | CXCR5 (Homo sapiens, UniProt P32302) | antagonist, FLIPR | – | 10 µM | – | inhibition | 3.5% |
| O=C(CSc1nc2ncc(C3CC3)nc2c(=O)n1CCc1ccccc1)Nc1nccs1 | Phosphatidylinositol 4-phosphate 3-kinase C2 domain-containing subunit alpha (Pik3c2a, Mus musculus, UniProt Q61194) | enzyme activity, inhibitor | – | concentration not given, added: ATP 10 µM | – | inhibition | inactive |
| O=C(O)CCC(=O)c1ccc(S(=O)(=O)N2CCCC2)cc1 | HDAC6 ZnF-UBD domain | – | – | – | – | Kd | 51.5 µM |
| O=C(Nc1cccc2c(=O)cc(-c3nnn[nH]3)oc12)c1ccc(OCCCCc2ccccc2)cc1 | LRRC8A/LRRC8C (Homo sapiens, UniProt Q8IWT6+Q8TDW0, L134K/L136K) | ion current, whole-cell patch clamp | LRRC8-/- HCT cells | 0.3 µM, L134K/L136K mutant, +100 mV | – | inhibition | 23% and 25.1% and 21.5% and 26.9% and 10.1% and -1.17% |
| CSc1ccccc1C(=O)NCc1cc(O)c(O)c(Br)c1 | rep main protease | enzyme activity, FRET | – | concentration not given | – | inhibition | inactive |
| Cc1cc(-c2ccnc3[nH]cc(F)c23)cc(F)c1[C@@]1(O)[C@H](C)CN(C2CCS(=O)(=O)CC2)C[C@@H]1C | STK16 (Homo sapiens, UniProt O75716) | ATP probe binding, KiNativ, refers to: Lys2 site | HEK293T cell lysate | 0.1 µM | – | inhibition | -29.7% |
| COc1ccc(C(=O)Nc2ccc(N3CCCN(c4ccccn4)CC3)cc2)cc1 | Alpha-synuclein, fibrils (SNCA, Homo sapiens, UniProt P37840) | radioligand binding | – | 1 µM, 50 nM protein, added: [3H]BF2846 4 nM | – | inhibition | inhibited |
| Cc1nn(-c2nc3c(F)cc(F)cc3s2)c(O)c1C(c1ccc(C(F)(F)F)cc1)c1c(C)nn(-c2nc3c(F)cc(F)cc3s2)c1O | Cyclic GMP-AMP synthase, catalytic domain; with DNA (CGAS, Homo sapiens, UniProt Q8N884) | cGAS phase separation, inhibitor | – | 12.5 µM | – | inhibition | 79.6% |
| CCOc1cc(-c2nncn2C)ccc1Nc1ncc2cc(C)nc(NCC(C)(C)C)c2n1 | 5'-AMP-activated protein kinase catalytic subunit alpha-2, with beta1 gamma1 (PRKAA2, Homo sapiens, UniProt P54646) | kinase activity, Z'-LYTE | – | 1 µM | – | inhibition | < 15% |
| Cn1cc(-c2ccc(-c3cncc(Cl)c3N3CCC4(CCNC4=O)CC3)cc2)cn1 | COLO 205 | gene expression, microarray, refers to: GADD45B mRNA | – | concentration not given, 6 h | relative to: untreated cells | log2 fold change | 1.27 |
| COc1cc(C(=O)NS(=O)(=O)c2ccccc2C)ccc1Cc1cn(C)c2ccc(NC(=O)OC3CCCC3)cc12 | Volume-regulated anion channel subunit LRRC8C, part LRRC8A IL1 chimera (LRRC8C, Homo sapiens, UniProt Q8TDW0, M48D) | ion current, inhibitor, whole-cell patch clamp | HCT LRRC8-/- cells | 10 µM, constitutively open channel, +100 mV | – | inhibition | 38.1% and 35.8% and 30.2% and 37.2% and 42.1% and 22.8% |
| COc1ccc(C(=O)NCc2cc(Br)c(OC)c(OC)c2)cc1OC | rep papain-like protease | enzyme activity, inhibitor, FRET | – | 10 µM | – | inhibition | < 0% |
| Cc1cc2c(cc1N1C(=O)c3cccc4c(CCCO)ccc(c34)C1=O)n(C)c(=O)n2C (racemic) | Bromodomain and WD repeat-containing protein 1, bromodomain 2 (BRWD1, Homo sapiens, UniProt Q9NSI6) | binding, BROMOscan binding | – | 100 nM | – | inhibition | 61% |
| COc1ccc(C(=O)NCc2ccc(C)c(C)c2)cc1 | rep main protease | enzyme activity, inhibitor, FRET | – | 10 µM | – | inhibition | < 0% |
| CCN1/C(=C/C(C)=O)Sc2ccc(F)cc21 | ADRA2B | – | – | 10 µM | – | inhibition | 91.6% |
| CCS(=O)(=O)c1nc(S(=O)(=O)c2ccccc2Cl)c(N2CCN(C)C(=O)[C@H]2C)s1 | ADRA2B | – | – | 10 µM | – | inhibition | 10.6% |
| Cc1ccc(C(=O)Nc2ccc(S(=O)(=O)O)c3cc(S(=O)(=O)O)cc(S(=O)(=O)O)c23)cc1NC(=O)c1cccc(NC(=O)Nc2cccc(C(=O)Nc3cc(C(=O)Nc4ccc(S(=O)(=O)O)c5cc(S(=O)(=O)O)cc(S(=O)(=O)O)c45)ccc3C)c2)c1 | Cullin-1, C-terminal domain with ROC1 (Homo sapiens, UniProt Q13616) | FRET | – | 5 µM | – | inhibition | 100% |
| COc1cc(CNC(=O)c2ccncc2Cl)cc(Br)c1OC | rep main protease | enzyme activity, inhibitor, FRET | – | 10 µM | – | inhibition | < 0% |
| Cn1cc(-c2cnc3ccc(NC(=O)Nc4ccc(F)c(Br)c4)cc3n2)cn1 | MAP3K5 (Homo sapiens, UniProt Q99683) | kinase binding, KiNativ profiling, refers to: Lys2 peptide | PANC-1 lysate | 7.5 µM | – | inhibition | 6.5% |
| O=C(NO)c1ccc(CN2CCCCc3ccccc32)c(F)c1 | ADRA2B | radioligand binding, radioligand displacement | – | 10 µM, mean of replicates | – | inhibition | 29.3% |

Some of these lines once more:
| SMILES | target or system | assay | system | conditions | how to read | measurement | result |
| --- | --- | --- | --- | --- | --- | --- | --- |
| COc1ccc(C(=O)Nc2ccc(N3CCCN(c4ccccn4)CC3)cc2)cc1 | Alpha-synuclein, fibrils (SNCA, Homo sapiens, UniProt P37840) | radioligand binding | – | 1 µM, 50 nM protein, added: [3H]BF2846 4 nM | – | inhibition | inhibited |
| Cc1cc2c(cc1N1C(=O)c3cccc4c(CCCO)ccc(c34)C1=O)n(C)c(=O)n2C (racemic) | Bromodomain and WD repeat-containing protein 1, bromodomain 2 (BRWD1, Homo sapiens, UniProt Q9NSI6) | binding, BROMOscan binding | – | 100 nM | – | inhibition | 61% |
| CSc1ccccc1C(=O)NCc1cc(O)c(O)c(Br)c1 | rep main protease | enzyme activity, FRET | – | concentration not given | – | inhibition | inactive |
